Measurements of several laboratories.
Protocols differ between the studies behind these lines.

The Cmax of `COc1cc2c(Oc3ccc(Nc4nn(C)cc4C(=O)NC4CCCCC4)cc3F)ccnc2cc1OCCCCCCC(=O)NO` is reported as 1310 ng/mL (mouse, plasma; intraperitoneal, 10 mg/kg).
The Cmax of `O=C(OCc1cccc(O)c1O)c1ccc(O)c(CO)c1` is reported as 27300 ng/mL (male CD-1 mouse, plasma; intravenous, 10 mg/kg).
The Cmax of `O=C1OC2(c3ccccc31)c1cc(I)c(O)c(I)c1Oc1c2cc(I)c(O)c1I` is reported as 325 ng/mL (female C57BL/6 mouse, plasma; oral, 100 mg/kg).
`CCS(=O)(=O)c1ccccc1C(=O)N1CCN(c2nc3ccc(F)cc3s2)C[C@@H]1C` gave a Cmax of 1660 ng/mL (mouse, plasma; intravenous, 3 mg/kg).
The Cmax of `O=C(NCCCCc1ccccc1)n1c(=O)oc2cc(-c3ccc(F)cc3)ccc21` is reported as 1770 ng/mL (CD-1 mouse, plasma; intraperitoneal, 10 mg/kg).
`CCCCCCCCCCCCCCCC(=O)OCC(CSC[C@H](N)C(=O)NCC(=O)N[C@@H](CC(=O)O)C(=O)N1CCC[C@H]1C(=O)N[C@@H](CCCCN)C(=O)N[C@@H](Cc1c[nH]cn1)C(=O)N1CCC[C@H]1C(=O)N[C@@H](CCCCN)C(=O)N[C@@H](CO)C(=O)N[C@@H](Cc1ccccc1)C(=O)O)OC(=O)CCCCCCCCCCCCCCC` (stereo partly shown) has a Cmax of 115 ng/mL (mouse, plasma; subcutaneous, 0.4 mg/kg).
With `CN(C)CCNC(=O)/C=C/C(Cc1ccccc1)Nc1ccnc2cc(Cl)ccc12` (stereo not shown) the Cmax was 63.8 ng/mL (CD-1 mouse, plasma; oral, 5 mg/kg, single dose).
`COc1ccc2c(c1)CCn1c[n+]3c(c1-2)-c1ccc(OC)cc1CC3` gave a Cmax of 486 ng/mL (male C57BL/6 mouse, plasma; intraperitoneal, 10 mg/kg, single dose).
`Nc1ccn(C[C@@H](CO)OCP(=O)(O)OCCCS(=O)(=O)CCCCCCCCCCCCCC2CCC2)c(=O)n1` gave a Cmax of 2620 ng/mL (mouse, plasma; intravenous, 3 mg/kg, single dose).
With `COc1ccc(C(=O)c2c(C(=O)NCCCN(C)C)oc3ccc(Cl)cc3c2=O)cc1OC` the Cmax was 123 ng/mL (male C57BL/6 mouse, brain; intraperitoneal, 5 mg/kg).
`N#Cc1cnc2cc(OCC3CCNCC3)c(F)cc2c1Nc1cc(F)c(OCc2cccc(Cl)n2)cc1Cl` gave a Cmax of 384 ng/mL (female CD-1 mouse, plasma; oral, 20 mg/kg).
`O=C(c1ccccc1)N1C(c2ccc(OCC3CCN(CCCF)C3)cc2)c2ccc(O)cc2CC12CC2` (stereo not shown) has a Cmax of 752 ng/mL (C57BL/6 mouse, plasma; oral, 25 mg/kg).
`CN1CCc2cc(Nc3ncc(C(F)(F)F)c(NCc4cc[nH]n4)n3)ccc2C1` has a Cmax of 1360 ng/mL (C57BL/6 mouse, plasma; oral, 50 mg/kg, single dose).
For `NS(=O)(=O)NCC(F)(F)c1ccccc1F`, the Cmax was 3130 ng/mL (mouse, plasma; oral, 5 mg/kg).
`NC(=O)c1c(F)ccc(OCc2nc3cc(Cl)cnc3s2)c1F` gave a Cmax of 700 ng/mL (mouse, plasma; oral, 3 mg/kg).
`Cc1cccc(O[C@H]2CCC[C@@H](C(C)CNCc3ccncc3)C2)c1` (relative stereo) has a Cmax of 1700 ng/mL (female C57BL/6 mouse, brain; oral, 25 mg/kg).
For `Cc1cc(O)cc(O)c1C(=O)c1c2c3c(c(O)cc(C)c3oc1=O)C(=O)c1c(O)cc(O)cc1-2`, the Cmax was 21000 ng/mL (male Kunming mouse, plasma; intraperitoneal, 15 mg/kg).
The Cmax of `CCC/C(=C\C1=C(C(F)(F)F)C(=O)c2ccccc2C1=O)C(=O)N(CC)CC` is reported as < 10 ng/mL (mouse, plasma; oral, 25 mg/kg).
With `C[C@@H](COc1ccc(F)cc1)C(=O)n1nc(N)c2ccc(CO)cc21` the Cmax was 7.4 µM (male C57BL/6 mouse, plasma; intraperitoneal, 10 mg/kg).
`CC(C)(C)NCC(SS(=O)(=O)O)c1ccccc1` (stereo not shown) has a Cmax of 710 ng/mL (female Swiss mouse, plasma; oral, 100 mg/kg).
The Cmax of `CCC(CC)CNC(=N)NC(=N)NCCCCCCNC(=N)NC(=N)NCC(CC)CC` is reported as 540 ng/mL (female BALB/c mouse, plasma; intraperitoneal, 5 mg/kg, single dose).
`O=C1NC(=O)C(C2CCOc3cc(Oc4ccc(C(F)(F)F)cc4Cl)ccc32)S1` (stereo not shown) has a Cmax of 22 µM (mouse, plasma; oral, 30 mg/kg).
With `O=C(Nc1ccc(OC(F)(F)F)cc1)N1CCC(Cc2cccc(Oc3ccc(C(F)(F)F)cn3)c2)CC1` the Cmax was 0.098 µM (male Swiss mouse, blood; oral, 1 mg/kg).
For `CCc1nc(N)nc(N)c1C#C[C@H](C)c1cc(-c2cc(C)nc(C)c2)ccc1Cl`, the Cmax was 400 ng/mL (mouse, plasma; oral, 5 mg/kg).
The Cmax of `[2H]C([2H])(N)C([2H])([2H])NC(=O)c1cc(C2CC2)nc2c1cnn2C(C)C` is reported as 2640 ng/mL (female BALB/c mouse, plasma; intraperitoneal, 50 mg/kg).
`CCC/C(=C\C1=C(F)C(=O)c2ccccc2C1=O)C(=O)N(CC)CC` gave a Cmax of 7450 ng/mL (mouse, plasma; oral, 25 mg/kg).
For `C[C@H]1CN(C(=O)c2cn(-c3ccnc(N)n3)c3cc(C#CC4(O)CCCCC4)ccc23)CCN1`, the Cmax was 340 ng/mL (CD-1 mouse, plasma; oral, 10 mg/kg).
`Nc1ccn(C[C@@H](CO)OCP(=O)(O)OCCCS(=O)(=O)CCCCCCCCCCCCC2CCC2)c(=O)n1` gave a Cmax of 1690 ng/mL (mouse, plasma; intravenous, 3 mg/kg, single dose).
The Cmax of `Cc1ccc2oc(-c3c4c(N)n[nH]c(=O)c4nn3-c3ccc(NC(=O)/C=C/CN(C)C)cc3)c(C)c2c1` is reported as 282 ng/mL (mouse, plasma; intraperitoneal, 3 mg/kg).
`CN1CCC(N[C@@H]2CCc3[nH]c4c(C(N)=O)ccc(-c5ccccc5Cl)c4c3C2)CC1` gave a Cmax of 653 ng/mL (mouse, plasma; intravenous, 2 mg/kg).
The Cmax of `CCC(=C(c1ccc(Cl)cc1)c1ccc(OCCN2CCOCC2)cc1)c1ccc(OC)cc1` is reported as 9400 ng/mL (male C57BL/6 mouse, plasma; oral, 400 mg/kg, single dose).
With `O=C1C2=C(CCN(Cc3ccccc3)C2)N2CCN=C2N1Cc1ccc(C(F)(F)F)cc1` the Cmax was 2020 ng/mL (female CD-1 mouse, plasma; oral, 50 mg/kg).
`Brc1ccccc1-c1nnc(CSc2nnnn2-c2ccccc2)o1` has a Cmax of 2.63 µM (male C57BL/6 mouse, plasma; intraperitoneal, 10 mg/kg).
The Cmax of `C[N+]1(CC(=O)OC2CCCCCCCCCCC2)CCCCC1` is reported as 6.7 ng/mL (mouse, plasma; intraperitoneal, 1 mg/kg, single dose).
